# Measured values gathered from unrelated publications.
# Every numbered part comes from another study and shows a few of its results, in no order. Substitutions count along the parent as printed.

# Set 1 — method: RNA Bind-n-Seq; molecule type: RNA; medium: in vitro; concentration: 100 nM; relative to: input RNA pool; direction: higher = stronger binding
# Target: RING finger protein unkempt homolog, zinc fingers 1-6, SBP tag (UNK, Homo sapiens, UniProt Q9C0B0, residues 30-357)
# Sequence of UniProt Q9C0B0 (30-357, looked up): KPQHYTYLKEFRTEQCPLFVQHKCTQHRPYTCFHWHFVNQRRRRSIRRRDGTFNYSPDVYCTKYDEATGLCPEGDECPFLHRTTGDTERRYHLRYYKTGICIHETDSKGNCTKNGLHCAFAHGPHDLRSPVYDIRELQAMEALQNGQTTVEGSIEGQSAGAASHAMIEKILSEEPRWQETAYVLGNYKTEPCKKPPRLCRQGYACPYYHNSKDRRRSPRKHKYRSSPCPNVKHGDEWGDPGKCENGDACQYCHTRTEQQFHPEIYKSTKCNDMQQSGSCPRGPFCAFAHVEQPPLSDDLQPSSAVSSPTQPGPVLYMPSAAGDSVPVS
# Notes: RNA with constant flanks, vertebrate orthologous sites, ends assumed
# Constant ends, left off below: GGGAGUUCUACAGUCCGACGAUC … CAACAGAGGAUUGAGCAUCA
Sequence,bound/input enrichment
CUGCUUGAGGGUACAGGGGAGGGAGGGGUAGGACAGUACGGAAUCUGGGGUGAUGUGGGUAGAUGGGGGAACAGUUCCAAGUGGGCUUUUUGAUGCUACCCUCUGGAGGUGUUUGGGGUG,0.463 ratio
UUUGAUUUUAUGUGUUUAAAAAGUUUAAGAAACAUUGCUUUAAAAAAAAAAAGAAGGAAAAAAGGCAAGUAGAGCAAACGGUUGUUGAAGUAGAAGAGAGAUGUAGGUAGAGGAUGUACU,0.359 ratio
CUUUUUAAGAUUUGGACCGAAUCAGGGAGCUAGCAAAAGCAAAGCAGACUUGUAAAAGUAUAGCCAUAUGCAGCUGCCCAACAACAGUUCUACCACUAGCAGCUGUGUUAAAGUAUUUAU,0.586 ratio
GUGACUUUGGUCGUCCGCACAGCUUCGGUGCAGAGGGUACUUAGCCCAGGCCUUGCGCGUACGCUCUUCUCCUACCCGGUUUUUAGGCCUCUGCCGCAACCAUGCUGCGCAUGAUUUUCA,0.181 ratio
UCAGAUCUAAGCCAACAGCAGUUCAAAAAUGCUAUUUAUUUGUGUCUGUAAGUUUGUACAUAGUAACAAUCUCAUAUUGUUGCAGAAUUUUUUUUCCAUGAGUUUGAGUUGUAUUUUUUU,0.512 ratio
UAUUCAGAAUCUUAAUAAAUUGCUCUGAGAUCCGAAAGUUGAUAUUGGAGGAUCCGACCAUAGGAUGCUGUUGCCAUAUUGUUUUGUUCUGGUUUUGGUUGAUUUUUUUUUUUUUUUAAU,1.25 ratio
AUAAUCACUCUAAUUGUAAUCUGAAUAAAGUGUAACAUUGUGUAGCCUUUUUGUAUAAAAUAGACAAAUAGAAAAUGGUCCAAUUAGUUUCCUUUUUAAUAUGCUUAAAAUAAGCAGGUG,0.775 ratio
GCACAUGCCGCUAUCACCAAAAGCAAACUGCCACUUUUCAAAUUUCAUUCAGAGCUGUUUUAGUGUUUCCUAUUCCCUACCCUUCCCACUACGUUCAAUGAUGAAAUAGCCUCAGUUGUC,1.89 ratio
CAUUAACACACGAAAUGUCUCCAGGGGGGUAUUAGAUUUGAUUUCUUACAUAUAAAACAAACCAACCAACCAUUUUUAAAGUAGAAGAGGGUUUUAGAUAGUAAAUGAAAUAUUCUUUUU,1.56 ratio
UUCAUUAUCUGAGCCGAGUGGAAGUGACAGAGUUUGAAGACAUCAAGUCGGGUUACAGAAUAGAUUUUUACUGUUGUUUGAGAUGUCUGAGAAGAGCUUUUUUUUAUCUUUGAUACUUAC,0.523 ratio
GCACAUGCCGCUAUCACCAAAAGCAAAUUGCCAUUUUUCAAAUUUCAUCCAGAGCCGUUUUAGUGUUUCCUAUUCCCUGCCCUUCCCAUUACUUUCAAUGAUGAAAGUUCUCCUCUGACA,2.34 ratio

# Set 2 — target: CCNB2, cyclin fold, Cln2 fusion (human); method: yeast growth competition, sequencing; medium: yeast; notes: strong parent motif; relative to: not given; direction: higher = stronger binding
# Parent: PKMYT1 docking peptide (human); SFEPRNLLSLFED; partner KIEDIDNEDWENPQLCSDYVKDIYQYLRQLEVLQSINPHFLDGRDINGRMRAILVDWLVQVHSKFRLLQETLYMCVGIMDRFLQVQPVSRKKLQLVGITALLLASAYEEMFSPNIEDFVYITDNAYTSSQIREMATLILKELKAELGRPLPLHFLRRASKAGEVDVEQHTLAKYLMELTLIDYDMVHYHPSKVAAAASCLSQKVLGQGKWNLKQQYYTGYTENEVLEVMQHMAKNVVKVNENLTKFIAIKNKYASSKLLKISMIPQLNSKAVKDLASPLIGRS
Substitution,normalised enrichment score
SFEPRCLLSLFED [N6C],0.795
SFEPRNWLSLFED [L7W],-0.397
SFEPRNSLSLFED [L7S],-0.406
WFEPRNLLSLFED [S1W],1.54
SFEPRNLLSLFEM [D13M],0.916
SLEPRNLLSLFED [F2L],2.38
SFEPRNLRSLFED [L8R],-0.314
AFEPRNLLSLFED [S1A],1.56
SFEPRNLLSLRED [F11R],-0.529
SFEPRNLLALFED [S9A],1.51
SFEPRQLLSLFED [N6Q],0.129
SFEPRNGLSLFED [L7G],-0.527
SFEPRNLLSGFED [L10G],-0.0987
SFESRNLLSLFED [P4S],0.477

# Set 3 — method: Sort-seq; item: YFP reporter; medium: E. coli; notes: PhoQ-PhoP variant library; together with: 10 µM Mg2+; relative to: high Mg2+ state; direction: higher = stronger signaling
# Molecule: PhoQ, residues 284 288 289 292 302 303 AMDMFI
target,fold induction
"PhoP, residues 12 14 15 18 19 NQCAL (Escherichia coli, UniProt P23836)",0.851
"PhoP, residues 12 14 15 18 19 TQAML (Escherichia coli, UniProt P23836)",0.651
"PhoP, residues 12 14 15 18 19 LHTVL (Escherichia coli, UniProt P23836)",0.858

# Set 4 — target: XBP1, bZIP domain (human); method: DHFR protein complementation; medium: yeast; relative to: wild-type JUN-FOS pair; direction: higher = stronger binding
# Notes: single substitutions, most at no-binding floor
# Parent: JUN, bZIP domain (human); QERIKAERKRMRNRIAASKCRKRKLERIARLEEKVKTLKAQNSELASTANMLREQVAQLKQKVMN; partner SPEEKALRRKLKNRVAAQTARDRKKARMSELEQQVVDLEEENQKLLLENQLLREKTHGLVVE
Substitution,binding fitness [natural log]
E32K,-1.27
K39T,-0.953
E33K,-1.22
K36T,-1.11
E32A,-1.21
E44I,-0.932
L31T,-1.44
R53A,-1.28
T48W,-1.34
E44R,-0.949
L59C,-0.511
L52H,-1.34
T37I,-0.651
Q55M,-0.606
I28Q,-1.07

# Repeated from above (set 4):
Substitution,binding fitness [natural log]
E44I,-0.932
E32K,-1.27
L52H,-1.34
